{"data": "Assay results collected from several papers", "note": "Parts stem from different laboratories: compare values within a part only. Changes are numbered by the printed parent chain."}
{"data": "Study 1", "target": "Ras GTPase-activating protein-binding protein 1, RRM domain (G3BP1, Homo sapiens, UniProt Q13283)", "technique": "RNA Bind-n-Seq", "form": "RNA", "matrix": "in vitro", "concentration": "1 µM", "setting": "whole 134-nt RNA, ends assumed", "together with": "150 mM KCl", "relative to": "input library", "reading": "higher = stronger binding", "shared flanks, not repeated": "GGGAGUUCUACAGUCCGACGAUC … UGGAAUUCUCGGGUGUCAAGG", "sequence of UniProt Q13283 (whole entry, looked up)": "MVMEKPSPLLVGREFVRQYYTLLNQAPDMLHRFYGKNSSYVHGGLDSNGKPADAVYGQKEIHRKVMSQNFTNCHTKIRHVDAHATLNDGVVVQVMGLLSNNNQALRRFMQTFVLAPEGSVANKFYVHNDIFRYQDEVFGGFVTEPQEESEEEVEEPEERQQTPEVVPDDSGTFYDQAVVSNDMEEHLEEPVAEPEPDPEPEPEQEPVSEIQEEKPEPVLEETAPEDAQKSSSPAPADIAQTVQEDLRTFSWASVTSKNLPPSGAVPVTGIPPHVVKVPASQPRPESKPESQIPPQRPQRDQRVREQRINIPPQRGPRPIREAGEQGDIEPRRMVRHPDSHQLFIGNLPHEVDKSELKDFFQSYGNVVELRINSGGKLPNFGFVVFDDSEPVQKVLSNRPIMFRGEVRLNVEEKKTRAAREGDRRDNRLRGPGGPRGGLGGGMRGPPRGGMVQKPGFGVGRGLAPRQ"}
{"Strand": "UGGCCCUGGUGGCAUGGGGGGAGGAAGAGGUGGCCUCAUGGAUCGUGGUGGUCCCGGUGGAAUGUUCAGAGGUGGCCGUGGUGGAGACAG", "log2 enrichment": 1.08}
{"Strand": "AAGUCCUGUGCUACACAUCGUAUGUACCGAAUCGGGUUUUUGGGUUUUUGGGUGGGAAAGUAUUAUGUUACGCCGUUCGGAUCUGCACUU", "log2 enrichment": 0.282}
{"Strand": "CCUGUGCUACACAUCGUAUGUACCGAAUCGGGGCCCCCCGGCCCCCCGGGGCCCCCCGGGAAAGUAUUAUGUUACGCCGUUCGGAUCUGC", "log2 enrichment": -0.704}
{"Strand": "CCUCAAGUCCUGUGCUACACAUCGUAUGUACCGAAUCGGGGAGGAGGAGGGGAAAGUAUUAUGUUACGCCGUUCGGAUCUGCACUUCCAG", "log2 enrichment": -0.188}
{"Strand": "CACAGACAACACGCACCCACACAGACACAGAGGGAAGGGGUUGGGAUGGGGACAGGGAGCACAGCAGGGCGGGGUAGGACCCCAGCCCCU", "log2 enrichment": -0.0678}
{"Strand": "CUCAAGUCCUGUGCUACACAUCGUAUGUACCGAAUCGGAAAGGAAAGGGAAAGGAAAGUAUUAUGUUACGCCGUUCGGAUCUGCACUUCC", "log2 enrichment": -0.226}
{"Strand": "UCCUCAAGUCCUGUGCUACACAUCGUAUGUACCGAAUCGGUGGGGUGGGUGGAAAGUAUUAUGUUACGCCGUUCGGAUCUGCACUUCCAG", "log2 enrichment": -0.0715}
{"Strand": "UCCUGUGCUACACAUCGUAUGUACCGAAUCGGGGCCCCCCGGCCCCCCGGCCCCCCGGGGAAAGUAUUAUGUUACGCCGUUCGGAUCUGC", "log2 enrichment": -0.438}
{"Strand": "CCUGUGCUACACAUCGUAUGUACCGAAUCGGGGUUUUUUGGUUUUUUGGGGUUUUUUGGGAAAGUAUUAUGUUACGCCGUUCGGAUCUGC", "log2 enrichment": -0.289}
{"data": "Study 2", "target": "CCND1, cyclin fold, Cln2 fusion (human)", "technique": "yeast growth competition, sequencing", "matrix": "yeast", "setting": "strong parent motif", "relative to": "not given", "reading": "higher = stronger binding", "starting sequence": "PKN2 docking peptide (human); VSAVRKLDFSDTM"}
{"Substitution": "VSAVRKLDDSDTM [F9D]", "normalised enrichment score": -0.131}
{"Substitution": "VSAVRKLDFSATM [D11A]", "normalised enrichment score": 4.95}
{"Substitution": "VSAVRKLDQSDTM [F9Q]", "normalised enrichment score": -0.241}
{"Substitution": "VSAVRKLDFSCTM [D11C]", "normalised enrichment score": 5.05}
{"Substitution": "VSAVNKLDFSDTM [R5N]", "normalised enrichment score": 0.465}
{"Substitution": "VAAVRKLDFSDTM [S2A]", "normalised enrichment score": 3.51}
{"Substitution": "VSAVRKLDHSDTM [F9H]", "normalised enrichment score": 0.097}
{"Substitution": "VSAHRKLDFSDTM [V4H]", "normalised enrichment score": 1.7}
{"Substitution": "VSAVRKLDFQDTM [S10Q]", "normalised enrichment score": 4.33}
{"Substitution": "VSAVRKLDFSQTM [D11Q]", "normalised enrichment score": 4.71}
{"Substitution": "VSDVRKLDFSDTM [A3D]", "normalised enrichment score": 0.177}
{"Substitution": "VSAVRRLDFSDTM [K6R]", "normalised enrichment score": 5.55}
{"Substitution": "VSAVLKLDFSDTM [R5L]", "normalised enrichment score": 1.75}
{"Substitution": "VSAVRKLDFSDRM [T12R]", "normalised enrichment score": 4.92}
{"Substitution": "VSAVRKLDFIDTM [S10I]", "normalised enrichment score": 3.59}
{"Substitution": "VSAVRKLDFSDLM [T12L]", "normalised enrichment score": 5.16}
{"Substitution": "VSAVRKLNFSDTM [D8N]", "normalised enrichment score": 3.77}
{"Substitution": "VSAVRKLDFMDTM [S10M]", "normalised enrichment score": 4.11}
{"Substitution": "VSNVRKLDFSDTM [A3N]", "normalised enrichment score": 0.576}
{"Substitution": "VSAVRFLDFSDTM [K6F]", "normalised enrichment score": 3.82}
{"Substitution": "VSAVRKLDYSDTM [F9Y]", "normalised enrichment score": 0.944}
{"Substitution": "VSAVRVLDFSDTM [K6V]", "normalised enrichment score": 4.3}
{"data": "Study 3", "target": "RING finger protein unkempt homolog, zinc fingers 1-6, GST-SBP tag (UNK, Homo sapiens, UniProt Q9C0B0, residues 30-357)", "technique": "RNA Bind-n-Seq", "form": "RNA", "matrix": "in vitro", "concentration": "not given", "setting": "RNA with constant flanks, human-mouse chimeric sites, ends assumed", "relative to": "input RNA pool", "reading": "higher = stronger binding", "shared flanks, not repeated": "GGGAGUUCUACAGUCCGACGAUC … CAACAGAGGAUUGAGCAUCA", "Target sequence (chain)": "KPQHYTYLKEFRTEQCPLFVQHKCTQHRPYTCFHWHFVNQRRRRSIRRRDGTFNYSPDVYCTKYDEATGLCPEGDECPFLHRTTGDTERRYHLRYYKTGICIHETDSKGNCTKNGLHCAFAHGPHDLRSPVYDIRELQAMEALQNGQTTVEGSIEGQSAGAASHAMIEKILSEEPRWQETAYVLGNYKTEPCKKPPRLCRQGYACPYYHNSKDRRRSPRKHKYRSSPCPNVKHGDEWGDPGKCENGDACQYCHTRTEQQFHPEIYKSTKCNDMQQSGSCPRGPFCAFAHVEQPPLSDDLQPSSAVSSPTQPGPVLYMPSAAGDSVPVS"}
{"Strand": "UGGCGCCUGCGCUCCCCACUCGUGUUUUUAAGUGUAUUUUUAUAAGACAUGUGUAUUUGUAAUAGAUCUUUUGUUACAUAAUGCUGAAAUGCUACUGGAGAUUAUGAAAAAUGUUUCAAU", "bound/input enrichment": "0.238 ratio"}
{"Strand": "AUGGAGAAGGAUUCUCUGCCCCGCUUUGUGCGCUCUGAAUUUUAUAAGGAGCUAAUCAAGUAGUCAUCUGGUCAGGCUUCCAAAAGUUCCUGUGAGUGUUGAGUUACAUCCUUUGUAGCA", "bound/input enrichment": "0.325 ratio"}
{"Strand": "GUAAUGUUUAUUCAUUUAACUUAUUUUUAUAGCUAGAUAAAUAUUGUUAGUCUUAGUCAAUAGCUCACAUUUUUUGAGAAGCAUGCCCUCCCUGUCCAUUUGUCUUAUAACAUGACCCAG", "bound/input enrichment": "41.1 ratio"}
{"Strand": "AUGGAACAUUUCGAUGCGUCACUCAGUACCUAUUUCAAGGCCUUCCUAGGCCCUCGAGAUACAAGAGUCAAAGGAUGGUUCCUCCUGGACAAUUACAUACCCACAUUUGUCUGUUCUGUU", "bound/input enrichment": "0.0827 ratio"}
{"Strand": "GCUCUUGGGAAUGUAAUCAGCGCCUUGGGGGACAAGAGCAAGAGAGCCACCCAUGUCCCUUACAGAGACUCUAAGCUAACAAGACUACUACAGGAUUCCCUUGGGGGUAACAGCCAAACC", "bound/input enrichment": "0.155 ratio"}
{"Strand": "AACAGAUUGUCUUUAAGCAUUCCAAGCGAGAAUGCUGAAAUAGUCAUUGUUGCCCAUGUGCCUUCUGACUGAGCUUUAAUGCUGUUCCAUGUUACAUCUUUCCUUCAUUGCAUAUUUGUU", "bound/input enrichment": "0.277 ratio"}
{"data": "Study 4", "target": "Histone acetyltransferase KAT6A, winged helix 1, GST fusion (KAT6A, Homo sapiens, UniProt Q92794, residues 1-85)", "technique": "protein binding microarray", "form": "double-stranded DNA, one strand shown", "matrix": "in vitro", "concentration": "not given", "setting": "8-mer, flanks averaged, mean of 2 arrays, mostly near background", "relative to": "not given", "reading": "higher = stronger binding", "Residues (chain)": "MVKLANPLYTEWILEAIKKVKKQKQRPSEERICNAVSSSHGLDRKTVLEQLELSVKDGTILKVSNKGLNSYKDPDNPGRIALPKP"}
{"Strand": "CATCGACG", "E-score": 0.13}
{"Strand": "ACGAGGGC", "E-score": 0.0277}
{"Strand": "CGCTCCGA", "E-score": 0.222}
{"Strand": "CAACTGAA", "E-score": -0.19}
{"Strand": "ACTAGGGA", "E-score": 0.027}
{"Strand": "GGACTGGA", "E-score": -0.215}
{"Strand": "AACCTAGG", "E-score": -0.186}
{"Strand": "CATAAAGC", "E-score": -0.0785}
{"Strand": "CCTATTGC", "E-score": 0.0122}
{"Strand": "CGAACTCG", "E-score": -0.0901}
{"Strand": "GACGCGGC", "E-score": 0.382}
{"Strand": "ATGAATTG", "E-score": -0.106}
{"Strand": "AGGGCCTG", "E-score": -0.265}
{"Strand": "AACTAGAC", "E-score": -0.0732}
{"Strand": "ACCCTTGC", "E-score": -0.0628}
{"Strand": "ATATCCCA", "E-score": 0.00108}
{"Strand": "CGGGCTAC", "E-score": 0.176}
{"Strand": "AACGCACC", "E-score": 0.143}
{"Strand": "GCCGATTA", "E-score": 0.126}
{"Strand": "AAAAATCA", "E-score": -0.0959}
{"Strand": "ACCTCATA", "E-score": -0.239}
{"Strand": "AAATTTCC", "E-score": -0.143}
{"Strand": "CATCTGGG", "E-score": -0.27}
{"Strand": "AGACACCT", "E-score": -0.0231}
{"Strand": "CGACACAG", "E-score": 0.0447}
{"note": "A few entries again (study 4):"}
{"Strand": "CATCGACG", "E-score": 0.13}
{"Strand": "ACTAGGGA", "E-score": 0.027}
{"Strand": "CGAACTCG", "E-score": -0.0901}
{"Strand": "ATATCCCA", "E-score": 0.00108}
{"Strand": "AACCTAGG", "E-score": -0.186}
{"Strand": "AACTAGAC", "E-score": -0.0732}
